{"data": "Results of several laboratories", "note": "Each numbered part is a random draw from the data of one study; scales do not carry over between parts. Changes are numbered by the printed parent chain."}
{"data": "Set 1", "target": "CCNA1, cyclin fold, Cln2 fusion (human)", "method": "yeast growth competition, sequencing", "medium": "yeast", "setting": "weak parent motif", "reference": "not given", "direction": "higher = stronger binding", "parent": "CDC25A docking peptide (human); PPHRRRLLFACSP"}
{"Change": "P13Q", "normalised enrichment score": 0.483}
{"Change": "A10Q", "normalised enrichment score": 0.43}
{"Change": "R6W", "normalised enrichment score": 0.621}
{"Change": "P1G", "normalised enrichment score": 0.0572}
{"Change": "S12N", "normalised enrichment score": 0.647}
{"Change": "P2S", "normalised enrichment score": 0.137}
{"Change": "C11A", "normalised enrichment score": 0.454}
{"Change": "R5W", "normalised enrichment score": 0.0214}
{"Change": "A10F", "normalised enrichment score": 0.22}
{"data": "Set 2", "target": "Ras GTPase-activating protein-binding protein 1, C-terminal RGG region (G3BP1, Homo sapiens, UniProt Q13283)", "method": "RNA Bind-n-Seq", "molecule type": "RNA", "medium": "in vitro", "concentration": "1 µM", "setting": "whole 134-nt RNA, ends assumed", "together with": "150 mM KCl", "reference": "input library", "direction": "higher = stronger binding", "shared flanks, not repeated": "GGGAGUUCUACAGUCCGACGAUC … UGGAAUUCUCGGGUGUCAAGG", "UniProt Q13283, sequence (whole entry, looked up)": "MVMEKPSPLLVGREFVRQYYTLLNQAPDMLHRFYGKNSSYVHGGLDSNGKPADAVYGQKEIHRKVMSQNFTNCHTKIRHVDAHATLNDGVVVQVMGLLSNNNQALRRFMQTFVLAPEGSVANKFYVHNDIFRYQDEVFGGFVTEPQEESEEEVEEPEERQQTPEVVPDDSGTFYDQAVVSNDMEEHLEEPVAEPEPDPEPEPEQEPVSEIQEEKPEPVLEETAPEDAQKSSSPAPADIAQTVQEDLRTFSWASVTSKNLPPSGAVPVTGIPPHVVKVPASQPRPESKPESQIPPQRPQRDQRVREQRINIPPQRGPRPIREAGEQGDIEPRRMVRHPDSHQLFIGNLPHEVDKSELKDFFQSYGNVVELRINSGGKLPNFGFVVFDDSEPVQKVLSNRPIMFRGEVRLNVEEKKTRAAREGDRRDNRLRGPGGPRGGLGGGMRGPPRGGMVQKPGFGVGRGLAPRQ"}
{"Oligonucleotide": "GUCCUGUGCUACACAUCGUAUGUACCGAAUCGGGUGGGUUUUUUUGGGAAAAAAAGGGAAAGUAUUAUGUUACGCCGUUCGGAUCUGCAC", "log2 enrichment": -0.368}
{"Oligonucleotide": "GUCCUGUGCUACACAUCGUAUGUACCGAAUCGGGAAAAAAAGGGUUUUUUUGGGAGGGAAAGUAUUAUGUUACGCCGUUCGGAUCUGCAC", "log2 enrichment": -0.171}
{"Oligonucleotide": "GUCCUGUGCUACACAUCGUAUGUACCGAAUCGGGGCCCCGGGGCCCCGGGGCCCCGGGAAAGUAUUAUGUUACGCCGUUCGGAUCUGCAC", "log2 enrichment": -0.0252}
{"Oligonucleotide": "CUCAAGUCCUGUGCUACACAUCGUAUGUACCGAAUCGGUUUUUGGUGGUUUGGAAAGUAUUAUGUUACGCCGUUCGGAUCUGCACUUCCA", "log2 enrichment": -1.27}
{"Oligonucleotide": "ACCAUGCAGGUGGGCAUCUUUGGGAAGUGGGGCAAGGGGGGGAGAGGGAGGGGGGUAACACUUUGGGAACAGGUGGUCCCAGGUCGUUUC", "log2 enrichment": 2.64}
{"Oligonucleotide": "GCAGGAAGUAAAAACAAAUGGAAAUGCUUCGGAUAGUGGCAGGGGUGGGGGUUGCUAUGGAAAGGGUGGGAUGGGAGUGGGUAAAGAGUU", "log2 enrichment": 2.29}
{"Oligonucleotide": "CCUGUGCUACACAUCGUAUGUACCGAAUCAAACCCCCAAACCCCCCCAAAUUUUUUUAAAAAAGUAUUAUGUUACGCCGUUCGGAUCUGC", "log2 enrichment": -0.973}
{"Oligonucleotide": "GCAGGAAGUAAAAACAAAUGGAAAUGCAUCGGAUAGUGGCAGGGGUGGGGGUUGCUAAGGAAAGGGUGGGAUGGGAGUGGGUAAAGAGUU", "log2 enrichment": 2.23}
{"Oligonucleotide": "UCCUGUGCUACACAUCGUAUGUACCGAAUCGGGGAAAAAAAGGGGUGGGGAAAAAGGGGAAAGUAUUAUGUUACGCCGUUCGGAUCUGCA", "log2 enrichment": 1.17}
{"data": "Set 3", "target": "Sal-like protein 4, full length isoform A (SALL4, Homo sapiens, UniProt Q9UJQ4, residues 1-1053)", "method": "universal PBM", "molecule type": "double-stranded DNA, one strand shown", "medium": "in vitro", "concentration": "600 nM", "setting": "8-mer, flanks averaged, mean of replicates", "direction": "higher = stronger binding", "UniProt Q9UJQ4, sequence (whole entry, looked up)": "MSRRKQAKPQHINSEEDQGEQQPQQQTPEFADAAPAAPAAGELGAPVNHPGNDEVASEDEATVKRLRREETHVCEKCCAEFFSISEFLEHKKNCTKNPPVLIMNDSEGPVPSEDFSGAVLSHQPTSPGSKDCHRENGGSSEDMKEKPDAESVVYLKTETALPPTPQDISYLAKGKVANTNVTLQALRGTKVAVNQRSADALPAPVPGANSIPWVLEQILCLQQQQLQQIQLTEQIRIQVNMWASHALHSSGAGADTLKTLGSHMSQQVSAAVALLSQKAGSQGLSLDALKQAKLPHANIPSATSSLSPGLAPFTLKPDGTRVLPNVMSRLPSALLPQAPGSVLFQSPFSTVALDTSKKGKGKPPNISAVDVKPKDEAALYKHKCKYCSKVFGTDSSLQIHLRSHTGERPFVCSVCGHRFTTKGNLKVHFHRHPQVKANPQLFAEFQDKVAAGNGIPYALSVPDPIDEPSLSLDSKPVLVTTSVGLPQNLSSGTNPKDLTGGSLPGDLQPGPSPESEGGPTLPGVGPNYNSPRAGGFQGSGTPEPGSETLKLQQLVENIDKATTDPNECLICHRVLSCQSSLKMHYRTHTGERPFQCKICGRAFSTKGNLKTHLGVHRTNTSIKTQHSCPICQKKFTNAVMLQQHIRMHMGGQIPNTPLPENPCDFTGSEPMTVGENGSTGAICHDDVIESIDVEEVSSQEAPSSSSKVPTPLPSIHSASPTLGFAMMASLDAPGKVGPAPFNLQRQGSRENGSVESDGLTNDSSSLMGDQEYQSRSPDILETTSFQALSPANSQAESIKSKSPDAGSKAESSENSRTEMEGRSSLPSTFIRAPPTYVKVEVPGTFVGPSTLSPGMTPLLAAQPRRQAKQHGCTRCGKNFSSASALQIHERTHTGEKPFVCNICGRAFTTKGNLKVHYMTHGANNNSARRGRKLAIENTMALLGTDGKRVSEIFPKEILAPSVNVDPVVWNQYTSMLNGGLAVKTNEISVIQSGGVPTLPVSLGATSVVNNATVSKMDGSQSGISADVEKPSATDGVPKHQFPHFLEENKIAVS"}
{"Oligonucleotide": "ATGCACCA", "E-score": 0.0615}
{"Oligonucleotide": "ACAATTTC", "E-score": 0.254}
{"Oligonucleotide": "CTCAGCCC", "E-score": -0.308}
{"Oligonucleotide": "ACTGATAA", "E-score": 0.306}
{"Oligonucleotide": "CCCTCTCC", "E-score": -0.283}
{"Oligonucleotide": "CGCGCACA", "E-score": -0.182}
{"Oligonucleotide": "CGATCTCA", "E-score": -0.0314}
{"Oligonucleotide": "AGAGTGAA", "E-score": 0.149}
{"Oligonucleotide": "AGAATACG", "E-score": 0.167}
{"Oligonucleotide": "GGAAGAGA", "E-score": 0.0401}
{"Oligonucleotide": "TTCAGCAA", "E-score": 0.161}
{"Oligonucleotide": "CGAATGCC", "E-score": -0.169}
{"Oligonucleotide": "CATTTTCC", "E-score": 0.224}
{"data": "Mixed results"}
{"Substance": "PhoQ, residues 284 288 289 292 302 303 ASASEQ", "target": "PhoP, residues 12 14 15 18 19 LWHSL (Escherichia coli, UniProt P23836)", "test": "Sort-seq, item: YFP reporter", "system": "E. coli", "conditions": "PhoQ-PhoP variant library, together with: 10 µM Mg2+", "scale": "reference: high Mg2+ state, higher = stronger signaling", "measurement": "fold induction", "result": 19.1}
{"note": "Repeated from above (set 1):"}
{"Change": "P2S", "normalised enrichment score": 0.137}
{"Change": "S12N", "normalised enrichment score": 0.647}
{"Change": "P13Q", "normalised enrichment score": 0.483}
{"Change": "R6W", "normalised enrichment score": 0.621}
